Experimental data gathered from unrelated publications.
“And” joins repeats or separate records; there may be more than shown. Numbers after ± are the reported error.
IDO1: Indoleamine 2,3-dioxygenase 1 (IDO1, Homo sapiens, UniProt P14902)
ESR1: Estrogen receptor (ESR1, Homo sapiens, UniProt P03372)
Grm2: Metabotropic glutamate receptor 2 (Grm2, Rattus norvegicus, UniProt P31421)
SYK with FCER1G: Tyrosine-protein kinase SYK, with FCER1G (SYK, Homo sapiens, UniProt P43405)
Tubulin alpha/beta heterodimer: Tubulin alpha/beta heterodimer (Leishmania infantum, UniProt A0A381MCS3+A4HTR0)
APP amyloid-beta peptide: Amyloid-beta precursor protein, amyloid-beta peptide (APP, Homo sapiens, UniProt P05067)

Sequences of proteins named here, by UniProt entry; tags and fusion partners are left off. A change or cut given only in a name is not applied to a line headed by its entry. Residues count along the entry.
UniProt P03372, whole entry: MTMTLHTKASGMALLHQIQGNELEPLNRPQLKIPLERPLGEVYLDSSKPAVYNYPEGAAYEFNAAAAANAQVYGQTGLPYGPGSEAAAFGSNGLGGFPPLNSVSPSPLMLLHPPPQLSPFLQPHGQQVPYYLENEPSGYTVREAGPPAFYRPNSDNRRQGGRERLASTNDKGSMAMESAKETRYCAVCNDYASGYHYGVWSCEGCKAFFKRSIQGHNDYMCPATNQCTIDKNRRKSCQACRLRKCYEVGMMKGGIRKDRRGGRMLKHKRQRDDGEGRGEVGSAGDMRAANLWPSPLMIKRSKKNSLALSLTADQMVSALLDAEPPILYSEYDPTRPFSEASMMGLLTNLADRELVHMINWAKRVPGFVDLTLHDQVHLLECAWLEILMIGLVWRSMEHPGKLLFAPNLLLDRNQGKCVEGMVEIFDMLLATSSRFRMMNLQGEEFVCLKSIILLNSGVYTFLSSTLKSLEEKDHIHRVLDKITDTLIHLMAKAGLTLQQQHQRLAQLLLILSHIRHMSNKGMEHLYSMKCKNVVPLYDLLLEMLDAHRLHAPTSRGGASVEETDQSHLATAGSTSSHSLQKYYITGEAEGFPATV
UniProt A4HTR0, 1-443: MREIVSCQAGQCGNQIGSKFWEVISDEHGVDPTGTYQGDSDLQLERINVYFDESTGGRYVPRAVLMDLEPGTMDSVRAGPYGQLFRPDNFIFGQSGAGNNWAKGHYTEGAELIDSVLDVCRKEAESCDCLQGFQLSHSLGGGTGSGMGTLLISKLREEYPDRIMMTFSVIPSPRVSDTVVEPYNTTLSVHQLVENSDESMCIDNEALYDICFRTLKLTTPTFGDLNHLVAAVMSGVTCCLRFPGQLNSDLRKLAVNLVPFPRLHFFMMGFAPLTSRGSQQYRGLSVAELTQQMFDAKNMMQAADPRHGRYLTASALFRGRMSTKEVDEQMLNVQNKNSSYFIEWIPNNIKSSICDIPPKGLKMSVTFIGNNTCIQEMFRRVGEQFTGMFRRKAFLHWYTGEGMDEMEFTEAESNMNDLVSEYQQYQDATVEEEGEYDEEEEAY
UniProt P05067, whole entry, looked up: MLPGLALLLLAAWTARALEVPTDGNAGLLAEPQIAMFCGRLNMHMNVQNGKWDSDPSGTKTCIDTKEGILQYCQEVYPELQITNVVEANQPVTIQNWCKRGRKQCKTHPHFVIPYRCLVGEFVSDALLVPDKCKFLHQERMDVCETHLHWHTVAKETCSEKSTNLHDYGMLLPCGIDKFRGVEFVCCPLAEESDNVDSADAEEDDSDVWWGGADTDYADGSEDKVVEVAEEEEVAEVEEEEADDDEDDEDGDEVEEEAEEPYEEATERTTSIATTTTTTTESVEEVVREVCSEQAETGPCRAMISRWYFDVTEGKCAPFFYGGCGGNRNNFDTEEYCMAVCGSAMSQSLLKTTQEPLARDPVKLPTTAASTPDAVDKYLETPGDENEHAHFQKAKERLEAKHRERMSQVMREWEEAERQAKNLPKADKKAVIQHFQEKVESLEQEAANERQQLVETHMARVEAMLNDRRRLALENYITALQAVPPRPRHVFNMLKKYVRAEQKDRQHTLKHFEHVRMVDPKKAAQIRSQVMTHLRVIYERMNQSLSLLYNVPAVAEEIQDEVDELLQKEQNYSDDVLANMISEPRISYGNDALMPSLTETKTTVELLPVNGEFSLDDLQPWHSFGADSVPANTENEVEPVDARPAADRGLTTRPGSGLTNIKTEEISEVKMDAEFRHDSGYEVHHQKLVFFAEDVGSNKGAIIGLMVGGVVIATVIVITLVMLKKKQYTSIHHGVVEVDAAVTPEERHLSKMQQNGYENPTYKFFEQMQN
UniProt P45983, 1-384 isoform 3: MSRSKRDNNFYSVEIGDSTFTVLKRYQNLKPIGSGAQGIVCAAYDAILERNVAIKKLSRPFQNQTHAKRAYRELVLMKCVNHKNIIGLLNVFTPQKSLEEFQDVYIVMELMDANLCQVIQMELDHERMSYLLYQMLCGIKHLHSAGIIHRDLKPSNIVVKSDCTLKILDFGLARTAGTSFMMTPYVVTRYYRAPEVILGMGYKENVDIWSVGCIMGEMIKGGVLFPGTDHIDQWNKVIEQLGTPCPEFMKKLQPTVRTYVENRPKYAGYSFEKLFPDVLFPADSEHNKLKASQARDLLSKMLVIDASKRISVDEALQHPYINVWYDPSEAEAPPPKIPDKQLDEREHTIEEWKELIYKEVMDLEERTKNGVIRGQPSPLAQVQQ
UniProt P28300, whole entry, looked up: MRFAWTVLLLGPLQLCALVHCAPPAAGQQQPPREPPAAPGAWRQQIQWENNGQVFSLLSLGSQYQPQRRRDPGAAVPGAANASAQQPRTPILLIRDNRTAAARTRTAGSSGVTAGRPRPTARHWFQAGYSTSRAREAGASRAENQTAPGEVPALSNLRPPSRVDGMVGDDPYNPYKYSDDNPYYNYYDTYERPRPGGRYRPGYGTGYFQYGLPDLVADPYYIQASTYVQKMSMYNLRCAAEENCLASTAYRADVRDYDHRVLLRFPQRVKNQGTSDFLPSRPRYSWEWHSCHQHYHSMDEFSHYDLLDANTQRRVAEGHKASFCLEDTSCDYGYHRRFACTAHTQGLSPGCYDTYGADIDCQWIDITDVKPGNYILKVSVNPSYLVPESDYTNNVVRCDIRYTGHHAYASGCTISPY
UniProt P50750, whole entry: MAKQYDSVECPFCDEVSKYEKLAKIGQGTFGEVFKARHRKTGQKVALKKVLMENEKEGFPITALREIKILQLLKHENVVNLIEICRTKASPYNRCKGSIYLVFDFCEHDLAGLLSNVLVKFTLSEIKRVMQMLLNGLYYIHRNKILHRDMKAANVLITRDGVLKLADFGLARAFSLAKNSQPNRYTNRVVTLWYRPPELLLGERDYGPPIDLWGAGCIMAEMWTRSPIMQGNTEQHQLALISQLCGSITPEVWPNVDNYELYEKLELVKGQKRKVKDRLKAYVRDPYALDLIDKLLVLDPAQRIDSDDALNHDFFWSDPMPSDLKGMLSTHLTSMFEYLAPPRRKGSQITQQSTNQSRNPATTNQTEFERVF
UniProt Q04609, whole entry: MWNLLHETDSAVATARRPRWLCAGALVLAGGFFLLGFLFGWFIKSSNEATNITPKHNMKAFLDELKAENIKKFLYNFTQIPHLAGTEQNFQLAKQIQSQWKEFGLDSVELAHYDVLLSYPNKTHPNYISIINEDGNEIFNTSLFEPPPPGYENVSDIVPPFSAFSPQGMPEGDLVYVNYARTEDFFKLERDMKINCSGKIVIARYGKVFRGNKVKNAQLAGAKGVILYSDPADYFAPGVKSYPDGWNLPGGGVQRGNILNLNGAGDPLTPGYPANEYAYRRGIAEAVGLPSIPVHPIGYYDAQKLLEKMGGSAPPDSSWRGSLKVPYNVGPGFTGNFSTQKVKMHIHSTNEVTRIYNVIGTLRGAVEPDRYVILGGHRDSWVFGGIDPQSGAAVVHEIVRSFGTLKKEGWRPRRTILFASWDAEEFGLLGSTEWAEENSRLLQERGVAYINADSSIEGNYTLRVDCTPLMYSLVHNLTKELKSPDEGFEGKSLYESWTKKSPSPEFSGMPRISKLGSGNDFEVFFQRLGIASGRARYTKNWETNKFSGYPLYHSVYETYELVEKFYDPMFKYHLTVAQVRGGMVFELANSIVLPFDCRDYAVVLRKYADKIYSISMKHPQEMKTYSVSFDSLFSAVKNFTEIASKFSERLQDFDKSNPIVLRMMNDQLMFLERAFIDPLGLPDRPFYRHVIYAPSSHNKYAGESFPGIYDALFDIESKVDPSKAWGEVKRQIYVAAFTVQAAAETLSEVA
UniProt Q99572, whole entry: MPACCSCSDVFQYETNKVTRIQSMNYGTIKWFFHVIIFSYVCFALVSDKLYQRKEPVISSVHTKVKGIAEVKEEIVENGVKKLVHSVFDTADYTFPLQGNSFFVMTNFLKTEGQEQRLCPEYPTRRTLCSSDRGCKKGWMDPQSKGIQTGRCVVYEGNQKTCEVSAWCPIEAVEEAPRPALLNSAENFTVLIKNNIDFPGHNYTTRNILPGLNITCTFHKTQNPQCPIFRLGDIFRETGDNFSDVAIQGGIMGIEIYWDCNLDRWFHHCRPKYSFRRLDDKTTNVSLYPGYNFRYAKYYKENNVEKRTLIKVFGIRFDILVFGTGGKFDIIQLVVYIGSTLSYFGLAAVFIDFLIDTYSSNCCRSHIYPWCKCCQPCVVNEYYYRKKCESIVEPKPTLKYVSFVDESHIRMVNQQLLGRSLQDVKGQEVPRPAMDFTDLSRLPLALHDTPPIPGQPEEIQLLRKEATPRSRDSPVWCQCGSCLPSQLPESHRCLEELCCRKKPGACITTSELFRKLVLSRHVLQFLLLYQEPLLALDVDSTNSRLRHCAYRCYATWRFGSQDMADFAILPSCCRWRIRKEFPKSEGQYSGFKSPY
UniProt O00748, 27-559 limits assumed: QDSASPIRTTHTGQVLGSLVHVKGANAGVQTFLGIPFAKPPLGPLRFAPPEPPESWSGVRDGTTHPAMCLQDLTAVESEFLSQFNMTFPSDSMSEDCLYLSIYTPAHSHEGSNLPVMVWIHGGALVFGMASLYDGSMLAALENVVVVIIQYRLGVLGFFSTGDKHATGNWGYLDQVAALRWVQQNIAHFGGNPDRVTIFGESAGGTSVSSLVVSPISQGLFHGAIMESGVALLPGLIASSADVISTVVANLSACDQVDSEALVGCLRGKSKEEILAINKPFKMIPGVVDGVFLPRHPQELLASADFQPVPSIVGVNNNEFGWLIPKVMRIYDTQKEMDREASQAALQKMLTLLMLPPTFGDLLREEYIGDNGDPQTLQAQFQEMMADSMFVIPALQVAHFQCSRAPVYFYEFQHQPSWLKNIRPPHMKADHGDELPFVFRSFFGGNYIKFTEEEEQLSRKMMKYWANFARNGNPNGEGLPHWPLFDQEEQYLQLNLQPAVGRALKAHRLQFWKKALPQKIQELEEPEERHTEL
UniProt P35968, 20-1356 limits assumed: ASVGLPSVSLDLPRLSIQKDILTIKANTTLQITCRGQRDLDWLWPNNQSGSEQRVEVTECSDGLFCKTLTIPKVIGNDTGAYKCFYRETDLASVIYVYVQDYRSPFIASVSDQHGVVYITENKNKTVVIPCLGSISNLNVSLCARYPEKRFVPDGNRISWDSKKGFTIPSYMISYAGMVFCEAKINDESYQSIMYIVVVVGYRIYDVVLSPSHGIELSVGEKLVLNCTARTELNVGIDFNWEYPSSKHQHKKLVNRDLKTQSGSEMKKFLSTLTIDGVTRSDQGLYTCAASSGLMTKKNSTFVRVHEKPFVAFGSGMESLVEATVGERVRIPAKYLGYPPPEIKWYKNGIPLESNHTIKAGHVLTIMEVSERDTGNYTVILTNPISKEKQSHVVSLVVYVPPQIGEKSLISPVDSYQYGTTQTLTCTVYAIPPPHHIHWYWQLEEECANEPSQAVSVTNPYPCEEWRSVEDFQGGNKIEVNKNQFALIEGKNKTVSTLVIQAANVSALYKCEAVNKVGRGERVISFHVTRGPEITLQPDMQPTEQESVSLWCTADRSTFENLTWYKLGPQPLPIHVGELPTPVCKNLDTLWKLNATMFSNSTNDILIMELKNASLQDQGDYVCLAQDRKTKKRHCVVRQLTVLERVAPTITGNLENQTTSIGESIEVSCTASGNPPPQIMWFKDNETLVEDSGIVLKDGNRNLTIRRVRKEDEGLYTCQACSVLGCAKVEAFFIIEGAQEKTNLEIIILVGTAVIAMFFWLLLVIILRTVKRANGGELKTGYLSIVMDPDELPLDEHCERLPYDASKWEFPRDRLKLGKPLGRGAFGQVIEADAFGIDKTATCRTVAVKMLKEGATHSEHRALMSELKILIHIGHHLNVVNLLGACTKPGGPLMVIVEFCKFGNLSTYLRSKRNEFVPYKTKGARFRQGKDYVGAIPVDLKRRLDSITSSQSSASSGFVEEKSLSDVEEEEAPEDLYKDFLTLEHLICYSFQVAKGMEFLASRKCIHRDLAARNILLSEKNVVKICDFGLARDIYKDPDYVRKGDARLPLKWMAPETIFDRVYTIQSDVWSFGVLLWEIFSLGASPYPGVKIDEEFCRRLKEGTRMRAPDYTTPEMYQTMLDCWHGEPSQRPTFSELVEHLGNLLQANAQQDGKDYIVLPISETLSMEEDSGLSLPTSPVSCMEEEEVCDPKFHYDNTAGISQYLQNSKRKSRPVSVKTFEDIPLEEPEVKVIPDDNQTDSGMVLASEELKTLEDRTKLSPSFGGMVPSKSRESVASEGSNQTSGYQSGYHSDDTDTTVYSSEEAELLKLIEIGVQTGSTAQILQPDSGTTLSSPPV
UniProt Q13304, whole entry: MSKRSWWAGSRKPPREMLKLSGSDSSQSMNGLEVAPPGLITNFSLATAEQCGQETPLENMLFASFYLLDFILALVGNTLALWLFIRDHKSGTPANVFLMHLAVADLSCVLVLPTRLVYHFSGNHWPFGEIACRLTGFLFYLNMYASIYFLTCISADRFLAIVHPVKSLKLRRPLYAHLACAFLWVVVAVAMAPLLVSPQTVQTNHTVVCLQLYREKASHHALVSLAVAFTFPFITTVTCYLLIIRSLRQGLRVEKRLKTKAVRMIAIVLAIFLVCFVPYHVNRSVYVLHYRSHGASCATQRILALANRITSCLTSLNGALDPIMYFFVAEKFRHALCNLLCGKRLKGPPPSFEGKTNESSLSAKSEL

CC(=O)Nc1cc(Nc2cc(NC3CC3)n3ncc(C#N)c3n2)ccc1N(C)Cc1ccccc1 — IC50 (CSNK2A1 (Homo sapiens, UniProt P68400); target engagement, NanoBRET; HEK293): 280 nM
Cc1cc(NC(=O)c2cccc(NC(=O)C3=CC(C)(C)CCC3=O)c2)ccc1Nc1nccc(-c2cccnc2)n1 — IC50 (MAPK8 (Homo sapiens, UniProt P45983); enzyme activity; with: glutathione 10 mM): 780 ± 159 nM
COc1cccc(Nc2nc(-c3sc(N)nc3C)cs2)c1 — IC50 (Protein-lysine 6-oxidase (Homo sapiens, UniProt P28300); LOX activity, inhibitor; MDA-MB-231): > 10000 nM
O=[N+]([O-])c1cccc(/C=C/c2c[nH]c3ccc(F)cc23)c1 — IC50 (IDO1; enzyme activity, inhibitor): > 100000 nM
CN1CC[C@H](c2c(O)cc(O)c3c(=O)cc(-c4ccc(C(F)(F)F)cc4)oc23)[C@H](O)C1 — IC50 (Cyclin-dependent kinase 9, with cyclin T1 (CDK9, Homo sapiens, UniProt P50750); inhibitor; with cyclin T1, GST-CTD substrate): 18.8 nM
COc1cc(OC)c2c(=O)c(OC)c(-c3ccccc3)oc2c1 — IC50 (Pde5a (Mus musculus, UniProt Q8CG03); enzyme activity, inhibitor): 16300 ± 1930 nM
NCc1ccc(C(=O)NOCc2ccc(C(F)(F)F)cc2)cc1 — IC50 (SIRT6 (Homo sapiens, UniProt Q8N6T7); deacetylase activity, inhibitor, fluorogenic; with: RHKK-ac-AMC): 3070 ± 140 nM
CN1CCN(Cc2ccc(NC(=O)c3cncc(C#Cc4cncc5ncccc45)c3)cc2C(F)(F)F)CC1 — IC50 (Kinesin-1 heavy chain/ Tyrosine-protein kinase receptor RET (RET/KIF5B, Homo sapiens, UniProt P07949+P33176, G810A); cell viability, inhibitor, CellTiter-Glo; Ba/F3 KIF5B-RET G810A): 3.57 ± 0.25 nM
O=C(NCc1ccc(Cl)cc1)[C@@H]1C[C@@H](O)CN1C(=O)c1cccc(F)c1 — IC50 (von Hippel-Lindau disease tumor suppressor, with elongin B, C (VHL, Homo sapiens, UniProt P40337); binding, fluorescence polarization; 10% DMSO, with: FAM-HIF1α peptide tracer): 38500 ± 500 nM
[N-]=[N+]=NCS(=O)(=O)NC(CCC(=O)O)C(=O)O (stereo not shown) — IC50 (FOLH1 (Homo sapiens, UniProt Q04609); enzyme activity, inhibitor, HPLC; 15 min, pH 7.4, 37 °C, 1% Triton X-100, with: 10 mM glutamate dipeptide substrate): > 100000 nM
O=c1[nH]c2ccc(S(=O)(=O)N3CCN(c4ccccc4)CC3)cc2o1 — IC50 (NUDT15 (Homo sapiens, UniProt Q9NV35); enzyme activity, inhibitor, malachite green; with: dGTP): 4000 nM
O=C(Nc1ccccc1OS(=O)(=O)c1ccc(F)cc1)c1cnccn1 — IC50 (P2X purinoceptor 7 (P2RX7, Homo sapiens, UniProt Q99572); calcium mobilisation, antagonist; MCF7 transfected with target; with: Bz-ATP 100 µM): 1180 nM and 1750 nM
CNCCCSc1c2cc(OC)ccc2nc2ccc(OC)cc12 — IC50 (HASPIN (Homo sapiens, UniProt Q8TF76); inhibitor, TR-FRET; with: histone H3 peptide): 8 nM
CN[C@H](c1nc2cc(-c3ccnc(F)c3)sc2c(=O)[nH]1)C(C)C — IC50 (CDC7 (Homo sapiens, UniProt O00311); enzyme activity, inhibitor): 6560 ± 229 nM
COc1nc(-c2ccccc2)n(-c2ccc(C#N)cc2)n1 — IC50 (Prostaglandin G/H synthase 2 (Macaca mulatta, UniProt F7BWZ9); PGE2 production, inhibitor, enzyme immunoassay; monkey whole blood): 200 ± 45 nM
COc1cccc(OC)c1-c1cc(C(=O)NC2(C(=O)O)C3CC4CC(C3)CC2C4)nn1-c1ccc(C(=O)N(C)CCCN(C)CCCN(C)C(=O)CN2CCN(CC(=O)O)CCN(CC(=O)O)CCN(CC(=O)O)CC2)cc1C(C)C (stereo not shown) — IC50 (NTSR1 (Homo sapiens, UniProt P30989); binding, competitive radioligand binding; HT-29; 40 min, 37 °C, with: [177Lu]Lu-compound radioligand): 9.6 nM and 8.3 nM
O=C(O)c1cc(C(=O)N[C@@H](Cc2ccc(O)cc2)C(=O)O)cc([C@H]2CCN[C@@H]2C(=O)O)c1 — IC50 (kainate receptor (rat); binding, radioligand binding; rat cortical synaptosomes; with: [3H]kainate): 10000 to 50000 nM
O=c1[nH]c(=S)[nH]c2sc(-c3ccccc3)cc12 — IC50 (PTP4A3 (Homo sapiens, UniProt O75365); phosphatase activity; 30 min, pH 7.0, 25 °C, with: DiFMUP 12 µM): > 100000 nM
O=C(O)CNC(=O)c1cc(C(=O)O)cc([C@H]2CCN[C@@H]2C(=O)O)c1 — IC50 (Glutamate receptor ionotropic, NMDA 2D, with GluN1 (Rattus norvegicus, UniProt Q62645); ion current, antagonist, two-electrode voltage clamp; Xenopus oocytes; GluN1/GluN2D, with: glycine 100 µM and glutamate 1 µM): 44300 ± 7900 nM
Cc1n[nH]c(C)c1-c1ccc(C2(c3ccc(Cl)cc3)CCNCC2)cc1 — IC50 (LATS2 (Homo sapiens, UniProt Q9NRM7); kinase activity, inhibitor, radiometric HotSpot; with: ATP 10 µM): 73 nM
Fc1ccc2[nH]cc(/C=C/c3cccnc3)c2c1 — IC50 (IDO1; enzyme activity, inhibitor): 25700 nM
CC(C)CNC(=O)CSc1nc2ccc(NC(=O)CSc3ccccc3C(F)(F)F)cc2s1 — IC50 (ESR1; reporter gene, antagonist; HEC-1 transfected ERα luciferase reporter): 20000 to 50000 nM
CCCCCCCCCCCCNC(=S)NCCCC[C@H](NC(=O)c1ccccc1)C(=O)N[C@H](C)C(=O)N[C@@H](CCCNC(=N)N)C(N)=O — IC50 (SIRT2 (Homo sapiens, UniProt Q8IXJ6); deacetylation, inhibitor; NAD+ 500 µM, with: acetylated peptide 50 µM): 170 ± 10 nM
Cc1ccc(NC(=O)c2cc3ccccc3c(N=Nc3ccccc3O)c2O)c(C)c1 — IC50 (Bcl-2-related protein A1 (Mus musculus, UniProt Q07440, C113S/P104K); binding, fluorescence polarization; with: FITC-Noxa peptide): 13800 nM
Cc1ncc(OCc2ccc3c(c2)c(=O)c(C(N)=O)cn3-c2ccc(F)cc2)cn1 — IC50 (Grm2; calcium mobilization, negative allosteric modulator): 277 nM
O=C(CCC(=O)N[C@@H](CCCCNC(=S)NCCn1nn[nH]c1=O)C(=O)N[C@@H](Cc1c[nH]c2ccccc12)C(=O)NC1CCC1)NCCOCCOCCCCCCCl — IC50 (SIRT5 (Homo sapiens, UniProt Q9NXA8); deacylase activity, inhibitor, end-point inhibition): 2300 ± 200 nM
COc1cc(C(=O)N2CCC(N3CCN(C)CC3)CC2)ccc1Nc1ncc2c(n1)N(C1CCC1)c1ccccc1C(=O)N2C — IC50 (LRRK2 (Homo sapiens, UniProt Q5S007); kinase activity, Adapta): 21 ± 1 nM
O=C(Cn1c(-c2cscn2)nc2ccccc21)Nc1ccc(Br)cc1 — IC50 (IMPDH2 (Homo sapiens, UniProt P12268); enzyme activity, inhibitor; lower bound): ≥ 20000 nM
CC(=O)N1CCN(c2ccc(Nc3ncc4c(n3)N(C)C(=O)N(c3cc(NC(=O)c5ccc(CN6CCC(N(C)C)C6)c(C(F)(F)F)c5)ccc3C)C4)cn2)CC1 (stereo not shown) — IC50 (FGFR4 (Homo sapiens, UniProt P22455); enzyme activity, inhibitor, radiometric kinase): < 1 nM
CSc1cc(NC(=O)c2ccccn2)ccc1Cl — IC50 (GRM5 (Homo sapiens, UniProt P41594); antagonist): > 30000 nM
CCOC(=O)c1nc2cc(Cl)c(Cl)cc2nc1N1CCN(C(=O)CC)CC1 — IC50 (PGK1 (Homo sapiens, UniProt P00558); enzyme activity, inhibitor, GAPDH-coupled; with: ATP 1.5 mM, 3-phosphoglycerate 2 mM): 680 ± 140 nM
CS(=O)(=O)Nc1ccc(OC[C@@H](O)CNCCc2ccc(Cl)c(Cl)c2)cc1 — IC50 (Glutamate NMDA receptor; Grin1/Grin2b (Grin1/Grin2b, Rattus norvegicus, UniProt P35439+Q00960); pH 6.9): 36 nM
NC(=O)c1cn(-c2ccc(F)cc2)c2ccc(CN3CCCS(=O)(=O)CC3)cc2c1=O — IC50 (Grm2; calcium mobilization, negative allosteric modulator): 415 nM
COc1ccccc1C(=O)Nc1ccc(-c2nc3ccccc3s2)cc1 — IC50 (Moesin, with CD44 (Homo sapiens, UniProt P26038); MSN-CD44 interaction, inhibitor, TR-FRET; with: CD44): > 100000 nM
CCC(=O)n1ccc2cc(-c3csc(NC(=O)c4cc(OC)cc(OC)c4)n3)ccc21 — IC50 (Scavenger receptor class B member 1 (Mus musculus, UniProt Q61009); DiI-HDL uptake, inhibitor; mouse cells; with: DiI-HDL): 89 nM
O=C1OC2CC1N(C(=O)c1cc(Cc3n[nH]c(=O)c4ccccc34)ccc1F)C2 (stereo not shown) — IC50 (PARP1 (Homo sapiens, UniProt P09874); enzyme activity; experiment Exp2): 0.53 nM
CC(C)NC(=O)CSc1nc2ccc(NC(=O)CSc3ccc(C(C)(C)C)cc3)cc2s1 — IC50 (ESR1; reporter gene, antagonist; HEC-1 transfected ERα luciferase reporter): > 50000 nM
O=C(Nc1ccc(-c2nc3ccc(NC(=O)N4CCOCC4)cc3s2)cc1)N1CCOCC1 — IC50 (SYK with FCER1G; protein binding, inhibitor, TR-FRET): > 100000 nM
CN(C)c1ccc(C=NN=C2NC(=O)C(CC(=O)Nc3ccc(C(=O)O)cc3)S2)cc1 (stereo not shown) — IC50 (PPP3CA (Homo sapiens, UniProt Q08209); phosphatase activity, inhibitor, malachite green; with: phosphopeptide substrate at Km): > 500000 nM
O=C(CCl)N1CCN(c2cc(N3CCCC3)nc(N3CCCC3)n2)CC1 — IC50 (Caspase-1 (CASP1, Homo sapiens, UniProt P29466); inhibitor; 45 min preincubation): 220 ± 120 nM
O=C(CSc1ccccc1C(F)(F)F)Nc1ccc2nc(SCC(=O)NC3CC3)sc2c1 — IC50 (ESR1; reporter gene, antagonist; HEC-1 transfected ERα luciferase reporter): 6300 nM
COC(=O)Nc1ccc(-c2nc3ccc(NC(=O)OC)cc3s2)cc1 — IC50 (SYK with FCER1G; protein binding, inhibitor, TR-FRET): 5400 nM
COC(=O)[C@@H]1C(C=Nc2cc(Cl)ccc2O)=Cc2cc3c(cc2[C@H]1c1cc(OC)c(OC)c(OC)c1)OCO3 — IC50 (Tubulin alpha/beta heterodimer; tubulin polymerization, inhibitor; 37 °C, with: tubulin 1.2 mg/mL): > 20000 nM
COC(=O)/C(=C/c1c[nH]c2ccc(C#N)cc12)c1ccc(F)cc1 — IC50 (APP amyloid-beta peptide; Aβ42 oligomerisation, ELISA): > 20000 nM
COC(=O)[C@@H]1C(c2nc3cc(Cl)ccc3o2)=Cc2cc3c(cc2[C@H]1c1cc(OC)c(OC)c(OC)c1)OCO3 — IC50 (Tubulin alpha/beta heterodimer; tubulin polymerization, inhibitor; 37 °C, with: tubulin 1.2 mg/mL): 12100 ± 1200 nM
CCN(CC)C(=O)Oc1ccccc1C=C1Cc2cc(OC)c(OC)cc2C1=O — IC50 (Cocaine esterase (CES2, Homo sapiens, UniProt O00748); inhibitor; 3 min preincubation, with: fluorescein diacetate): 11.8 ± 2.07 nM
Nc1ccc(Cl)c2cccnc12 — IC50 (Methionine aminopeptidase 2 (Homo sapiens, UniProt P50579); enzyme activity, inhibitor, coupled; with: Met-Pro-pNA substrate, Mn2+ 10 µM): > 15000 nM
CCOC(=O)c1noc2c1C(=O)C(C)=C(C)C2=O — IC50 (TDP2 (Homo sapiens, UniProt O95551); enzyme activity, inhibitor; with: 5'-phosphotyrosyl oligonucleotide substrate): > 111000 nM
COc1cc2nccc(Oc3ccc(NC(=S)NC4CCC4)c(Cl)c3)c2cc1C(N)=O — IC50 (KDR (Homo sapiens, UniProt P35968)): 20.5 nM
Cc1cnccc1-c1ccc(C2(c3ccc(Cl)cc3)CCNCC2)cc1 — IC50 (LATS1 (Homo sapiens, UniProt O95835); kinase activity, inhibitor, radiometric HotSpot; with: ATP 10 µM): 843 nM
O=C(N/N=C/c1ccc(Sc2ncccn2)s1)c1cccc(F)c1 — IC50 (Protein phosphatase EYA2 (Homo sapiens, UniProt O00167); tyrosine phosphatase activity, inhibitor): 110 nM
O=C(Nc1ccc(Cl)cc1)C(NS(=O)(=O)c1cccs1)c1ccc(Cl)cc1 (stereo not shown) — IC50 (Uracil nucleotide/cysteinyl leukotriene receptor, long isoform (GPR17, Homo sapiens, UniProt Q13304); calcium mobilization, antagonist; 1321-N1): 9980 ± 1540 nM
COc1ccc2[nH]cc(/C=C/c3cccc([N+](=O)[O-])c3)c2c1 — IC50 (APP amyloid-beta peptide; Aβ42 oligomerisation, ELISA): 7500 nM
CN1CC[C@H](c2c(O)cc(O)c3c(=O)cc(-c4ccccc4F)oc23)[C@H](O)C1 — IC50 (Cyclin-dependent kinase 1, with cyclin B (CDK1, Homo sapiens, UniProt P06493); ATP at Km): 123 nM
CCCCCCCCCCCCCCCCNNC(=O)c1ccc(N(C)C)cc1 — IC50 (HDAC11 (Homo sapiens, UniProt Q96DB2); enzyme activity, inhibitor; with: myristoyl-SHMT2 peptide): 1000 nM
